Experimental data collected from several papers.
Numbered parts are unrelated; each lists some results of a single study. Changes are numbered by the printed parent chain.
Sequence of UniProt P33981 (whole entry, looked up): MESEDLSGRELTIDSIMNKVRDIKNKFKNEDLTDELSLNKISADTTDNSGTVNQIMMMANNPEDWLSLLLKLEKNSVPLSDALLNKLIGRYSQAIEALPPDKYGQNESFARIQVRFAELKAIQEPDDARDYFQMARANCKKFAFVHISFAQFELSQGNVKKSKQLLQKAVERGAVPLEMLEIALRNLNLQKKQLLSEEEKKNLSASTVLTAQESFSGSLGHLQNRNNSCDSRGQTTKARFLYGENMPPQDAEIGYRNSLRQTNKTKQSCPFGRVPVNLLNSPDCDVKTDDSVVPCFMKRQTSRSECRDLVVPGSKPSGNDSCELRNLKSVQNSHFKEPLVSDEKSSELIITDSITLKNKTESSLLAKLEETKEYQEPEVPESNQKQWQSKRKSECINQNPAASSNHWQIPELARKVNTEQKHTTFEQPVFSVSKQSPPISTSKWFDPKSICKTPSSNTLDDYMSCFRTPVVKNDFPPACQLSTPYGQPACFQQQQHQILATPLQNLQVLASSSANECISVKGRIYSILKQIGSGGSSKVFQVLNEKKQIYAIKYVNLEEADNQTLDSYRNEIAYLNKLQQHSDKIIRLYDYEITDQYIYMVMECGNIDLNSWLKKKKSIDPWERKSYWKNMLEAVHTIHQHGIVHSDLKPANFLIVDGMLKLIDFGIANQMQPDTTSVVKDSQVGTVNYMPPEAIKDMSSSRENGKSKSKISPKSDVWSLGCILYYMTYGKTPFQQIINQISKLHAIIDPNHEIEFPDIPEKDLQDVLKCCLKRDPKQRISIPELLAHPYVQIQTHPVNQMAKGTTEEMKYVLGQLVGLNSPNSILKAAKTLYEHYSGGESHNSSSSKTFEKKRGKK
Sequence of UniProt Q9BXA7 (whole entry, looked up): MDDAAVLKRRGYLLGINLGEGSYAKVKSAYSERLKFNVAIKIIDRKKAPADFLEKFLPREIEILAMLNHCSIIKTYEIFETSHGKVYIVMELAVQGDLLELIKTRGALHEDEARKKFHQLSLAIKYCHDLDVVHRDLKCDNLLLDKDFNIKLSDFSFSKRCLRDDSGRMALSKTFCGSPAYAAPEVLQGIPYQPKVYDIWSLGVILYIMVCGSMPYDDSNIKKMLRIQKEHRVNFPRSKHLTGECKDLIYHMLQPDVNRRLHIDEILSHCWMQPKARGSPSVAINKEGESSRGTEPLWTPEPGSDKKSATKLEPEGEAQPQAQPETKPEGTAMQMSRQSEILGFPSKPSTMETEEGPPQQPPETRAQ
Sequence of UniProt Q9P0L2 (whole entry, looked up): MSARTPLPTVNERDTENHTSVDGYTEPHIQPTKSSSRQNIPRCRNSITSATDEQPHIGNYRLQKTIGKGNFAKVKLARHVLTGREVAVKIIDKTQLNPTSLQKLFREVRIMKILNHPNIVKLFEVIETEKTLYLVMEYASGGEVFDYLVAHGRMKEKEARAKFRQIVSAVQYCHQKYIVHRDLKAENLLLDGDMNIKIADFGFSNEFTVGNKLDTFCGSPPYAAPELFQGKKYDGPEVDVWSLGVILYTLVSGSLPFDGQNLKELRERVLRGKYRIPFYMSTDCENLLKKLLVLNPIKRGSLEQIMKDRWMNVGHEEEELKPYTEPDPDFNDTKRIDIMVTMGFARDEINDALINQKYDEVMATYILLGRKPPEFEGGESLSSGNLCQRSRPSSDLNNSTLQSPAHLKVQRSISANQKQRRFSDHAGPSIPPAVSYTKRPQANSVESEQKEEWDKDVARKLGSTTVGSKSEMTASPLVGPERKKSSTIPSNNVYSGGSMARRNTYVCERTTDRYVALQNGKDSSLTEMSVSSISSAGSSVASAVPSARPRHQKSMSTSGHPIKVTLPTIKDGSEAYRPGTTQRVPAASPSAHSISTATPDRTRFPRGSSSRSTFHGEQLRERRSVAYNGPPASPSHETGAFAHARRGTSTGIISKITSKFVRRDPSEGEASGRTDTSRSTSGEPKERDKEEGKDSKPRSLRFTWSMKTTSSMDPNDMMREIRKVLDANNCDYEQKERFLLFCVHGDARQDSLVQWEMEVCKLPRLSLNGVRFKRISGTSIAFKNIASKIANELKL
Sequence of UniProt P10721 (whole entry, unmodified, looked up): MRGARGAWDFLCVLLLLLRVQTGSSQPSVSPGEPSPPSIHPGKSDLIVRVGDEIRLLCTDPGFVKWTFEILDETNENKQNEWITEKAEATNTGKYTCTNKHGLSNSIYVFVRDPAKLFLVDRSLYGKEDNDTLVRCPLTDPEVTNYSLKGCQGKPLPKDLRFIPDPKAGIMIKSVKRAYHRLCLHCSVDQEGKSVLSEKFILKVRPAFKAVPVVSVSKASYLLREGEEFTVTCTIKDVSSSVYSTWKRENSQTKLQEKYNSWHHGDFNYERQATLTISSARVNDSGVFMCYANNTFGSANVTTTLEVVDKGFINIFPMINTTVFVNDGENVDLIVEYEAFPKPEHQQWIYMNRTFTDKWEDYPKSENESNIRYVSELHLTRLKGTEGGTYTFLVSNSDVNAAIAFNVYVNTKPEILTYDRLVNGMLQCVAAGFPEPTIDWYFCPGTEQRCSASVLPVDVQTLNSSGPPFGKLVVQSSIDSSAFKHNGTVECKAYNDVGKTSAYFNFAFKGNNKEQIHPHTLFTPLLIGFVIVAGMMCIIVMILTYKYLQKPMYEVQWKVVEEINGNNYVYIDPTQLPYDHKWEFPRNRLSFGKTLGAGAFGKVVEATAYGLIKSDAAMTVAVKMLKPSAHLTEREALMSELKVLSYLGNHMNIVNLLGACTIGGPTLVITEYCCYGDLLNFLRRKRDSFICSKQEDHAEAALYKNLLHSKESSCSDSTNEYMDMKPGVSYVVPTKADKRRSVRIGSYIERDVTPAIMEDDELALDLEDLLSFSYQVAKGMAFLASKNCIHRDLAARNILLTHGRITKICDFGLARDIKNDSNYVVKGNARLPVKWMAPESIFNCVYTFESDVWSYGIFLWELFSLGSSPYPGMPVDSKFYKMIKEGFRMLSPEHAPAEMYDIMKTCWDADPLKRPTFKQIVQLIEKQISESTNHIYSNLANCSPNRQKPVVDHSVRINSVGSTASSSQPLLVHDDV
Sequence of UniProt Q9UQM7 (whole entry, looked up): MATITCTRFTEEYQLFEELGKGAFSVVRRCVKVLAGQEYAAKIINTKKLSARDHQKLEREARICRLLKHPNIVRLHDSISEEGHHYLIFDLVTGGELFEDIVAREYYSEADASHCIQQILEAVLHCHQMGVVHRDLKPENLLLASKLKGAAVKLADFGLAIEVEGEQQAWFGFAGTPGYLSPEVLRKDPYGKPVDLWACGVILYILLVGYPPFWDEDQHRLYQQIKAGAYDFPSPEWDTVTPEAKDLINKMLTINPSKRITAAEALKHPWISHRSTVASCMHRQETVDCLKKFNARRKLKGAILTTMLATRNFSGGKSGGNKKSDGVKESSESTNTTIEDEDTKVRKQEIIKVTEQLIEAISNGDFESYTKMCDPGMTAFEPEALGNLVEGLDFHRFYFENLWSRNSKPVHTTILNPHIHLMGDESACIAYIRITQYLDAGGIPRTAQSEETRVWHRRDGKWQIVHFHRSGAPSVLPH
Sequence of UniProt Q00534 (whole entry, looked up): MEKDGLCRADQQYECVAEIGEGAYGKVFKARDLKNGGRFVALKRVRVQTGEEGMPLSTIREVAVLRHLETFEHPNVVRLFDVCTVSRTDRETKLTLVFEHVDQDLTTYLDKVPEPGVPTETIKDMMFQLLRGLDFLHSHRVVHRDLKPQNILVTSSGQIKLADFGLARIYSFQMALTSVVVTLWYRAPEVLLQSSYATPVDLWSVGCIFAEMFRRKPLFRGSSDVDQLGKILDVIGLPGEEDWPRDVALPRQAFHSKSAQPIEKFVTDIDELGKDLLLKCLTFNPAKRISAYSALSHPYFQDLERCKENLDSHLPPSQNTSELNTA
Sequence of UniProt P43403 (whole entry, looked up): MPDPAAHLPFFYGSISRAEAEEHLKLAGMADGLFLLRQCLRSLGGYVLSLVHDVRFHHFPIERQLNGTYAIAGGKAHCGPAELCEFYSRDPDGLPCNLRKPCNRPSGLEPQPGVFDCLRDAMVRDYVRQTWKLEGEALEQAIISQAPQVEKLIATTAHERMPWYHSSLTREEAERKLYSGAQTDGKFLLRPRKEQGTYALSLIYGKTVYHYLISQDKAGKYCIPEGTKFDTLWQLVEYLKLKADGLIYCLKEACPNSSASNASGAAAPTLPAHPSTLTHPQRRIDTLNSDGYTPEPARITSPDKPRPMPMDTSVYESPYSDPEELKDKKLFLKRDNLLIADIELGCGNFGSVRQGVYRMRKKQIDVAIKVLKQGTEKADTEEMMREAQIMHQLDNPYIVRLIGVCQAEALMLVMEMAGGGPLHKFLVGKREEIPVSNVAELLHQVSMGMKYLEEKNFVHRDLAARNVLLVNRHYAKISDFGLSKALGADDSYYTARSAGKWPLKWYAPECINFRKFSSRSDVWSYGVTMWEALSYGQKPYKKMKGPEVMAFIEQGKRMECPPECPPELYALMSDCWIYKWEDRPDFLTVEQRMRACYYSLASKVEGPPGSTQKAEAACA

Series 1
SMILES: COc1cc2nccc(Oc3ccc(NC(=S)NC(=O)c4ccccc4C)cc3)c2cc1OC
Effect on: enzyme activity
Mode: inhibitor
Tested at: 0.5 µM
Reference: control
The remaining activity was 4.31% (Aurora kinase B (AURKB, Homo sapiens, UniProt Q96GD4)).
TTK (Homo sapiens, UniProt P33981) — remaining activity: 101%.
PTK2 (Homo sapiens, UniProt Q05397) — remaining activity: 90.7%.
TSSK1B (Homo sapiens, UniProt Q9BXA7) — remaining activity: 83.6%.
PIM3 (Homo sapiens, UniProt Q86V86) — remaining activity: 98.2%.
PDGFRA (Homo sapiens, UniProt P16234) — remaining activity: 12.5%.
For CAMK2A (Homo sapiens, UniProt Q9UQM7): remaining activity read 85.6%.
For ZAP70 (Homo sapiens, UniProt P43403): remaining activity read 97%.
For Cyclin-dependent kinase 6, with cyclin D1 (CDK6, Homo sapiens, UniProt Q00534): remaining activity read 87.1%.
It gave 93.4% for remaining activity (SRPK2 (Homo sapiens, UniProt P78362)).
For CHUK (Homo sapiens, UniProt O15111): remaining activity read 98.3%.
The remaining activity was 33.9% (PTK6 (Homo sapiens, UniProt Q13882)).

Series 2
Structure (SMILES): O=C(NC[C@@H]1[C@H]2CN(C(=O)OCc3cc(C(F)(F)F)cc(C(F)(F)F)c3)C[C@@H]12)c1ccc2[nH]nnc2c1
Effect on: cell-free assay
Technique: competition with immobilised ligand
Tested at: 1 µM
For KIT (Homo sapiens, UniProt P10721, V559D): remaining binding read 88%.
LRRK2 (Homo sapiens, UniProt Q5S007) — remaining binding: 91%.
It gave 88% for remaining binding (FLT3 (Homo sapiens, UniProt P36888, F691L/ITD)).
MARK1 (Homo sapiens, UniProt Q9P0L2) — remaining binding: 98%.

Series 3
Target: CCNE2, cyclin fold, Cln2 fusion (human)
Technique: yeast growth competition, sequencing
Medium: yeast
Notes: strong parent motif
Reference: not given
Reading: higher = stronger binding
Starting sequence: E2F1 docking peptide (human); PPVKRRLDFETDH
`T11I`: “normalised enrichment score” 5.88.
Under “normalised enrichment score”, `K4L` is recorded as 1.2.
Under “normalised enrichment score”, `V3S` is recorded as 1.44.
`R5D` — result for “normalised enrichment score”: -0.183.
For `D12Q`, “normalised enrichment score” read 6.1.
`L7Q`: “normalised enrichment score” -0.239.
`R5W` — result for “normalised enrichment score”: 0.0882.
`R5N`: “normalised enrichment score” 0.249.

Series 4
Cell line: A-375
Tested at: 100 µM
Time: 18 h
For CC(C)C[C@H](NC(=O)CNC(=O)c1cc(Cl)ccc1Cl)B(O)O, the viability was 24.9%.
With Nc1ccc(S(=O)(=O)Nc2nccs2)cc1 the viability was 92.9%.
CCOC(=O)[C@H](CCc1ccccc1)N[C@@H](C)C(=O)N1Cc2ccccc2C[C@H]1C(=O)O has a viability of 87.6%.
CN(C)[C@@H](CCOc1cccc2ccccc12)c1ccccc1 has a viability of 9.33%.
For CC(CCc1ccccc1)NCC(O)c1ccc(O)c(C(N)=O)c1 (centres unmarked), the viability was 100%.

For quick reference, copied from above (series 2):
LRRK2 (Homo sapiens, UniProt Q5S007) — remaining binding: 91%.
For KIT (Homo sapiens, UniProt P10721, V559D): remaining binding read 88%.
